Measurements pooled from the literature.
Parts stem from different laboratories: compare values within a part only. Changes are numbered by the printed parent chain.

Sample 1
Target: RNA binding protein fox-1 homolog 2, RRM domain, GST-SBP tag (RBFOX2, Homo sapiens, UniProt O43251-10, residues 100-194)
Method: RNA Bind-n-Seq
Form: RNA
Medium: in vitro
Tested at: 365 nM
Setting: natural RNA segment, single round, ends assumed
Baseline: no-protein control
Direction: higher = stronger binding
Endpoint: RBNS enrichment (R)
Residues (chain): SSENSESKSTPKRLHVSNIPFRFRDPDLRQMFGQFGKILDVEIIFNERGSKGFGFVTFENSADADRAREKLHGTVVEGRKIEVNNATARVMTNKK
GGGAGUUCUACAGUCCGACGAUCGGGCAAGUGAACUCAGCACUCUGCAGUGAGAGGGACAGUCCCAUGUGUGGCAGCAUUGUCCCACUUCAGAUGCCAGGAGUGGGCUCAUCCUAGAGGAGCGGAGUUUUCCGUGGAAUUCUCGGGUGCCAA: 0.212
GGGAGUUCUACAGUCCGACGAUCAAGGAAAGAUGGUAAUAGUGAGAGAUUCGGGGGGCACCCCCUCCCCAUUGGUUUCUGGCCCUUUCAGGCUACAACCCCCCAGCCUUGCAGGUGUCAGAACAGUCUCACAAUGGAAUUCUCGGGUGCCAA: 0.333
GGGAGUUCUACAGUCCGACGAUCCUGGGUGGAAACUGCUUUGCACUAUCGUUUGCUUGGUGUUUGUUUUUAACGCACAACUUGCUUGUACAGUAAACUGUCUUCUGUACUAUUUAACUGUAAAAUGGAAUUUUUGGAAUUCUCGGGUGCCAA: 0.732
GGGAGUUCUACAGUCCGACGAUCCCCUCACGGCUGAUCAAUAAUGUUGCAAAGGGAGACUACAGGGAUCUCACGACGAAUAUUCUGAUACAAUACUCAACCUCGGUAUAUAUAUAUGUGUAUAAAUAUAUGUAUGGAAUUCUCGGGUGCCAA: 0.454
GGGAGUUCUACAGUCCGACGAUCUGGGCUCAUUGUGACCACUGGCCUCUCUACAGCACGGCCUGUGGCCUGUUCAAGGCAGAACCACGACCCUUGACUCCCGGGUGGGGAGGUGGCCAAGGAUGCUGGAGCUGUGGAAUUCUCGGGUGCCAA: 0.416
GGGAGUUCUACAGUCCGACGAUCGUAUGUGUCUUUAUUUGUAUUGGAAAAUACUGUCUUUAAAUUGUUUCUUGUUGACACUCCCCACAAUGGAAAAAUUACCGAAUUAAACCUGUUUUAUGGAUGGCAGCUUGUGGAAUUCUCGGGUGCCAA: 1.39
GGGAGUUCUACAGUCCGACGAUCGUUUGGUAUUUUUGCAUUAUGACAGUUGUUGAGACUAGGAUUUUAAGCUAGGAUAUGAUUAUAUUUCCUAUAUAACUAAAAAUUUUGUUUCAUAAAUUUUAAAAUAAUUAUGGAAUUCUCGGGUGCCAA: 1.92
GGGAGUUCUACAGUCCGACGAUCUGUGUGUAUGUGCGUGUGCGUGCACAUGUGUGCCUGCGUGUUGGUAUAGGACUUUAAAGCUCCUUUUGGCAUAGGGAAGUCACGAAGGAUUGCUUGACAUCAGGAGACUUUGGAAUUCUCGGGUGCCAA: 0.861

Sample 2
Target: Histone acetyltransferase KAT6A, winged helix 1, GST fusion (KAT6A, Homo sapiens, UniProt Q92794, residues 1-85)
Method: protein binding microarray
Form: double-stranded DNA, one strand shown
Medium: in vitro
Tested at: not given
Setting: 8-mer, flanks averaged, mean of 2 arrays, mostly near background
Baseline: not given
Direction: higher = stronger binding
Endpoint: E-score
Target sequence (chain): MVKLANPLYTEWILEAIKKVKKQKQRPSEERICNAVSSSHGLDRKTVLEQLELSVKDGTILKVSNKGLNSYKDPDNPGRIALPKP
CTTTTTTC: -0.159
ATCCGTTA: 0.0962
CACTGTCG: -0.0493
AGATGTTG: -0.0826
CGTAGTTA: 0.0799
CCACTCCG: 0.245
CTGTAGAC: 0.0422
GGAATTGA: -0.0477
CCACTGAC: -0.123
ACACTAGG: 0.0405
TACCTCGA: -0.251
GGAAACCA: -0.00189
CAATGACC: -0.0874
GAAACACA: -0.0356
GCGTGCAA: 0.0869
AGCCAGCC: -0.189
CGATGTAC: 0.0427
CAGAGTCG: -0.0971
AAAGTGAC: -0.0575

Sample 3
Target: CCNE2, cyclin fold, Cln2 fusion (human)
Method: yeast growth competition, sequencing
Medium: yeast
Setting: weak parent motif
Baseline: not given
Direction: higher = stronger binding
Endpoint: normalised enrichment score
Parent: PKMYT1 docking peptide (human); SFEPRNLLSLFED
SFEPRVLLSLFED [N6V]: 0.146
SFEQRNLLSLFED [P4Q]: -0.058
SFEPRNLLCLFED [S9C]: -0.0456
SNEPRNLLSLFED [F2N]: -0.712
SFEPRYLLSLFED [N6Y]: -0.067
SFEPRNLLWLFED [S9W]: 0.117
SFEPRNLHSLFED [L8H]: -0.546
SFEPRNLLNLFED [S9N]: 0.49
SFEPRNSLSLFED [L7S]: -0.338
SFEPRNLLSLFET [D13T]: -0.4
SFDPRNLLSLFED [E3D]: -0.149
SFEPRNLISLFED [L8I]: -0.0755
NFEPRNLLSLFED [S1N]: 0.541
SFEPRNLGSLFED [L8G]: -0.757
GFEPRNLLSLFED [S1G]: 0.14

Single results of other studies
PhoQ, residues 284 288 289 292 302 303 DDMDFR — fold induction (PhoP, residues 12 14 15 18 19 AQALL (Escherichia coli, UniProt P23836); Sort-seq, refers to: YFP reporter; E. coli; PhoQ-PhoP variant library, together with: 10 µM Mg2+; baseline: high Mg2+ state, higher = stronger signaling): 1.08

For quick reference, copied from above (sample 1):
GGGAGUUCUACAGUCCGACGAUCGUAUGUGUCUUUAUUUGUAUUGGAAAAUACUGUCUUUAAAUUGUUUCUUGUUGACACUCCCCACAAUGGAAAAAUUACCGAAUUAAACCUGUUUUAUGGAUGGCAGCUUGUGGAAUUCUCGGGUGCCAA: 1.39
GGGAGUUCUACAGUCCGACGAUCGUUUGGUAUUUUUGCAUUAUGACAGUUGUUGAGACUAGGAUUUUAAGCUAGGAUAUGAUUAUAUUUCCUAUAUAACUAAAAAUUUUGUUUCAUAAAUUUUAAAAUAAUUAUGGAAUUCUCGGGUGCCAA: 1.92
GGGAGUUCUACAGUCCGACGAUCUGUGUGUAUGUGCGUGUGCGUGCACAUGUGUGCCUGCGUGUUGGUAUAGGACUUUAAAGCUCCUUUUGGCAUAGGGAAGUCACGAAGGAUUGCUUGACAUCAGGAGACUUUGGAAUUCUCGGGUGCCAA: 0.861
